# Assay results collected from several papers.
# Compare with care: the assays were run in different laboratories. Several values in a cell are separate wells, animals, samples, runs or records. ± marks the error that the study gave.
SMILES,target or system,assay,test system,setting,how to read,endpoint,value
NNC(=O)c1ccccc1,,"hydrazine ligation kinetics, absorbance",,"concentration not given, 15 s, together with: 2-formylphenylboronic acid",,normalised absorbance,0.518
CC(C)CC(C(=O)N1CC2(CC1C#N)C(=O)Nc1ccccc12)N(C)C(=O)c1cc2c(F)cc(F)c(F)c2[nH]1 (stereo not drawn),Human coronavirus 229E,cytopathic effect,MRC5,0.1095 µM,,inhibition,106%
COc1ccccc1-c1n[nH]c2nc(N[C@H]3CC[C@H](NS(=O)(=O)CC(C)C)CC3)ncc12,,"bead binding, competition bead pull-down, refers to: LINJ.19.1560",Leishmania donovani extract,10 µM,relative to: vehicle,relative abundance,1.05
CN(C)[C@H]1C[C@@]23CC[C@@]4(O2)C(=CC[C@]2(C)[C@@H](c5ccc6ccncc6c5)CC[C@H]24)C=C3[C@@H](O)[C@@H]1O,"Interleukin-1 receptor-associated kinase 1 (IRAK1, Homo sapiens, UniProt P51617)","ATP probe labelling, inhibitor, KiNativ profiling",,0.1 µM,,inhibition,-4.4%
CN1CCN(S(=O)(=O)c2ccc(-c3ccc4ncnc(Nc5ccc(OCc6ccccc6)c(Cl)c5)c4c3)cc2)CC1,Plasmodium falciparum,"parasite growth, SYBR Green",D6,blood stage,,EC50,29 nM
CC(C)C[C@@H]1NC(=O)[C@@H](Cc2c[nH]c3ccccc23)NC(=O)[C@H](CCCNC(=N)N)NC(=O)[C@@H](CCC(=O)O)NC(=O)[C@H](CCC(N)=O)NC(=O)[C@@H](CCC(=O)O)NC(=O)[C@H](CCCNC(=N)N)NC(=O)[C@@H](Cc2c[nH]c3ccccc23)NC1=O,,"Luminex, refers to: IL9","LDLr-/- mice, Western diet, liver","dose not given, 4 weeks",,cytokine level,670 ± 160 pg/g tissue
CC[C@H](C)[C@H](NC(=O)[C@H](CO)NC(=O)[C@H](Cc1ccc(O)cc1)NC(=O)[C@H](Cc1ccc(O)cc1)NC(=O)[C@H](CC(N)=O)NC(=O)CNC(=O)[C@H](CO)NC(=O)[C@H](Cc1ccc(O)cc1)NC(=O)[C@H](CO)NC(=O)[C@H](CO)NC(=O)[C@H](CC(N)=O)NC(=O)COCCOCCNC(=O)CN1CCN(CC(=O)O)CCN(CC(=O)O)CCN(CC(=O)O)CC1)C(=O)N[C@@H](CC(C)C)C(N)=O [copper-64 labelled],,ex vivo PET,"C57BL/6 mice, liver","intravenous, 4.6 MBq/mouse",,tissue uptake,1.7 %ID/mL
CN1C(=O)C(C2C3=C(CC(C)(C)CC3=O)Oc3ccc([N+](=O)[O-])cc32)C(=O)N(C)C1=O (stereo not drawn),3T3-L1 adipocytes,"qPCR, refers to: FAS",,"IC20, 14 days",relative to: untreated mature adipocytes,mRNA level,decreased
CCOC(=O)C1(Cc2ccccc2)Oc2cc(C)ccc2N(Cc2ccccc2)C1=O (stereo not drawn),Arabidopsis thaliana,,Col-0,200 mg/mL,,root growth inhibition,inhibited
Cc1cc(C(=O)Nc2nc3cccc(C)c3n2[C@H]2CCCCN(C(=O)/C=C/CN(C)C)C2)ccn1,Trypanosoma brucei,,"STIB795, mouse acute HAT model","oral, 50 mg/kg once daily for 4 days, day 0",relative to: mice,survival,100%
Cc1ccc(N2CC3CC(C2)N3C)cc1C(=O)NC1(c2ccc3c4c(cccc24)C(=O)N3C)CC1,human coronavirus 229E,viral replication,Huh-7,0.01172 µM,,inhibition,0%
O=C1NC(=O)c2c1c1cc(F)c[n+]3c1c1c2c2cc(O)ccc2[n]1[Ru-4]312([N]=C=S)[S+]3CC[S+]1CC[S+]2CC3 (stereo not drawn),"Activin receptor type-1B (ACVR1B, Homo sapiens, UniProt P36896)",enzyme activity,,"100 nM, human enzyme, together with: 10 µM ATP",relative to: untreated,remaining activity,122%
O=C1NC2(CC2)COc2ncc(F)cc2[C@H]2COCCN2c2ccn3ncc1c3n2,,,"Sprague-Dawley rat, female, serum","oral, 20 mg/kg/day, 4 weeks daily, end of treatment",,pancreatic amylase activity,1120 ± 369 U/L
CC(C)(C)C(=O)OCOP(=O)(OCOC(=O)C(C)(C)C)C1CCCN(O)C1=O (stereo not drawn),MOLT-4,,,,,log LC50,> -4 log M
CS(C)(=O)=Nc1ccc(-c2ccc(-c3nc4cc(O[C@@H]5CO[C@H]6[C@@H]5OC[C@H]6O)[nH]c4cc3F)cc2)cc1,"Type-1 angiotensin II receptor (AGTR1, Homo sapiens, UniProt P30556)","calcium signal, antagonist",,10 µM,,inhibition,32%
CC(C)[C@H]1NC(=O)C[C@H]2/C=C/CCSSC[C@@H](NC1=O)C(=O)N[C@H](Cc1cccc3ccccc13)C(=O)NCC(=O)O2,"Fibroblast growth factor receptor 1 (FGFR1, Homo sapiens, UniProt P11362)","enzyme activity, inhibitor",,10 µM,,inhibition,9.6%
Cc1cc(Oc2nc(N3CC[C@@H](c4ccncc4)C3)ncc2F)[nH]n1,Mycobacterium tuberculosis,OD,H37Rv PurF CRISPRi knockdown,"0.000488 µM, together with: anhydrotetracycline low",,normalised growth,66% and 69%
COc1ccccc1-c1n[nH]c2nc(NC3CCN(C(=O)Cc4ccc(F)cc4F)CC3)ncc12,,"bead binding, competition bead pull-down, refers to: LINJ.05.0550",Leishmania donovani extract,10 µM,relative to: vehicle,relative abundance,0.84
